Measurements pooled from the literature.
Each numbered part is a random draw from the data of one study; scales do not carry over between parts. Positions count from the first letter of the parent shown.

Series 1 — method: DHFR PCA, deep sequencing; sample: yeast; together with: (+)-ABA 0 µM; relative to: wild-type fitted maximum; direction: higher = stronger binding; endpoint: relative binding score
Target: ABI1, truncated, D143A, DHFR fusion (Arabidopsis thaliana)
Setting: methotrexate growth selection, single substitutions
Parent: PYL1, truncated, DHFR fusion (Arabidopsis thaliana); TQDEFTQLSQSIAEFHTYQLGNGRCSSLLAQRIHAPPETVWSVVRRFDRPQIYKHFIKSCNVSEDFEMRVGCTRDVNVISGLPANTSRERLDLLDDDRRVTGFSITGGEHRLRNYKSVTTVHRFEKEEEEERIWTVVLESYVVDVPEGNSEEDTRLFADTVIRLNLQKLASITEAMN; partner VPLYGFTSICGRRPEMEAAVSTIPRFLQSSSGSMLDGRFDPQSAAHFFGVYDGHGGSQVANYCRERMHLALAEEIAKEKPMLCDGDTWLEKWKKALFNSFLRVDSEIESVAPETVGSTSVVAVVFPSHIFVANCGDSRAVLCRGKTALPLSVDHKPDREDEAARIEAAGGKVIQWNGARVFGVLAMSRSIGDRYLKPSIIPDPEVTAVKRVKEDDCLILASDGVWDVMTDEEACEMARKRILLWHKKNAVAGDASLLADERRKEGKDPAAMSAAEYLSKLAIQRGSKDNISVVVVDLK
I57T: -1.7%
N61R: 43.4%
N149E: 27.5%
E131L: 31.6%
T119Q: 2.49%
N114Q: -3.17%
E147S: 8.55%
K54P: 3.16%
L91H: -2.63%
M176S: 3.93%
R24N: 3.81%
E64T: 20%
V145L: -7.76%
Q2L: 60.6%
F66I: -2.23%
T120M: -4.14%
T120H: -4.03%
E89W: 6.86%
N77Y: 32.9%
R113D: -6.23%
T39E: 6.76%
L112H: -1.13%
T154Y: -19.6%
V100P: -7.16%
L138A: 2.88%

Series 2 — method: RNA Bind-n-Seq; molecule type: RNA; sample: in vitro; tested at: 365 nM; relative to: no-protein control; direction: higher = stronger binding; endpoint: RBNS enrichment (R)
Target: RNA binding protein fox-1 homolog 2, RRM domain, GST-SBP tag (RBFOX2, Homo sapiens, UniProt O43251-10, residues 100-194)
Setting: natural RNA segment, single round, ends assumed
Shared flanks, not repeated: GGGAGUUCUACAGUCCGACGAUC … UGGAAUUCUCGGGUGCCAA
Construct (chain): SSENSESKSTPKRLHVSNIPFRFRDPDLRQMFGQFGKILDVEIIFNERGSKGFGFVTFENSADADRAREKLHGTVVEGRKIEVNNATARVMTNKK
AAAAAAAAAAAAAGUGUCUCCAGGAGGCUGUCCAGCCUCGUGGCUCCAUUUCAACAUCUCCCCCCAGGCGAUGUUCUCCCCCAAGACGACCAGAAAAUUGUUUAUUGGGG: 0.242
UUCAUAGUCAUUGAGAAUGUGGAGAUACCAGUUUGGGUGGGGGGUGAUCACCAGGGGACCUAGGGAGAUCCCCUUCCCACCCUCUCUGUUGGCCUCAGAGUCACUCCUGC: 0.267
GGGGCAGGAGGUGGGGUGGAAAUAGGGUGGGCUCCUUUCCUCAGGUAGAGUGGGGGGCCAAAACCUCUGCAGUCCCCGGCAGUGAGCUAUGGACUUUCUUCCCCCUCACA: 0.531
GUUGGAUAUGUGGUUCCUGAUGCAUUUUGACUUGUCUUUUUAAAUGCUUUAUCUUUUUCUUUAAAGAUUUAUUUCAAUAAAACUAAUUGGGACCACCCGUAUUUCAGUAG: 0.849
UUUACGUCUUCAGCACCCUUGAUUAAAAUGGUGUCGUUUACUUAUGUGCACCAAUUGUCAAAACCACUGAGUGCUGUGCUGCCUAUGUGAGAAGAAAGUUACUGACUUGU: 0.461
UGAGCUUCUCUCUUUGAAGGAUUCUAACAGAACAAAGCUGCUGAUCAACCUAAGUUGGAAACAGAAAGUGUAAUUAAUAUAACUUAAAUGCAUGUUUGGCAGUUCCAUGU: 2.31
CCUUCAAAGCAGGGAAGAAUACCUGACUCGUUGCUUCGCAGAGCUGCUUUGACCUGCAGAGACUUGUAGACCUCUUCUCUUCUCUGUCCCCUUGGUUACCACCUACCCAC: 0.903
CUUUUUCUUUUCCUGGGGACUUGUUUCCAUUAAAUGAGAGUAAUUAAAAUCGCUUGUAAAUGAGGGCAUACAAGCAUUUGCAACAAAUAUUCAAAUAGAGGCUCACAGCG: 0.739

Series 3 — method: RNA Bind-n-Seq; molecule type: RNA; sample: in vitro; tested at: 200 nM; setting: whole 134-nt RNA, ends assumed; together with: 150 mM KCl; relative to: input library; direction: higher = stronger binding; endpoint: log2 enrichment
Target: Ras GTPase-activating protein-binding protein 1, full length (G3BP1, Homo sapiens, UniProt Q13283)
Chain of UniProt Q13283 (whole entry, looked up): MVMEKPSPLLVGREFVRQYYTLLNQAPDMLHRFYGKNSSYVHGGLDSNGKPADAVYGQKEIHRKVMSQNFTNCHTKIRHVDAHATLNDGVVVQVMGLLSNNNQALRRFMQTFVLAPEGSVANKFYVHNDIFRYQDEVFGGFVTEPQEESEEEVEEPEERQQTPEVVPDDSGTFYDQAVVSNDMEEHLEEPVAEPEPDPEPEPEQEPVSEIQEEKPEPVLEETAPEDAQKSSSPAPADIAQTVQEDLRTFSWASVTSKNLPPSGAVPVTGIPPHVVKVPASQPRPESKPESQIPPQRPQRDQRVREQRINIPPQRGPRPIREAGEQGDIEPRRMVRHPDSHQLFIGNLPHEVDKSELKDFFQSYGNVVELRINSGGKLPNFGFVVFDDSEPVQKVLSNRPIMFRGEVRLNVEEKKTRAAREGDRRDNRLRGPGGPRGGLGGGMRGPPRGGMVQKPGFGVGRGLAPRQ
Shared flanks, not repeated: GGGAGUUCUACAGUCCGACGAUC … UGGAAUUCUCGGGUGUCAAGG
GUCCUGUGCUACACAUCGUAUGUACCGAAUCAAACCCCCCCAAACCCCCAAAUUUAAAAAAGUAUUAUGUUACGCCGUUCGGAUCUGCAC: -0.159
AUAUGAGUAAAAUCUGUCCCUUUUUCCCCCUUUGAAUGAGGUCUUCCAUGUUUGAGGGAAAGUCUUGCACUAUUGCAUAUAUUUUGGGGA: -0.157
UUGUUUUUUUUUUGUUCUUUUUUUCCAUGUCACUAAAGGCCCUCGGGACCAAGGAUCACGUCAUGACUCCGGUGAGUUCACACGUGGUGG: -0.245
UCCUGUGCUACACAUCGUAUGUACCGAAUCGGGUUUUUUUGGGAAAGGGAAAAAAAGGGAAAGUAUUAUGUUACGCCGUUCGGAUCUGCA: -0.27
UUCAUUCCCAAGGGAGGCCAUGUCUGGAGAUAGACCUUGAAUUUAAUAAAUUUUAGGCACUAUACCAUUUCAGUGGAGAAAAUUGUUGGG: -1.71
ACCAUGCAGGUGGGCAUCUUUGGGAAGUGGGGCAAGGGGGGGAUAGGGAGGGGGGUAACACUUUGGGAACAGGUGGUCCCAGGUCGUAUC: 1.06
GCAGGAAGUAAAAACAAAUGGAAAUGCUUCGGAUAGUGGCAGGGGUGGGGGUUGCUAAGGAAAGGGUGGGACGGGAGUGGGUAAAGAGUU: 0.827
CACAGACAACACGCACCCACACAGAUACAGAGGGAAGGGGUUGGGAUGGGGACAGGGUGCACAGCAGGGCGGGGUAGGACCCCAGCCCCU: 1.92
UGGCCCUGGUGGCAUGCGGGGAGGAAGAGGUGGCCUCAUGGAUCGUGGUGGUCCCGGUGGCAUGUUCAGAGGUGGCCGUGGUGGAGACAG: -0.143

Series 4 — method: protein binding microarray; molecule type: double-stranded DNA, one strand shown; sample: in vitro; tested at: not given; relative to: not given; direction: higher = stronger binding; endpoint: E-score
Target: Histone acetyltransferase KAT6A, both winged helices, GST fusion (KAT6A, Homo sapiens, UniProt Q92794, residues 1-181)
Setting: 8-mer, flanks averaged, mean of 2 arrays, mostly near background
Target sequence (chain): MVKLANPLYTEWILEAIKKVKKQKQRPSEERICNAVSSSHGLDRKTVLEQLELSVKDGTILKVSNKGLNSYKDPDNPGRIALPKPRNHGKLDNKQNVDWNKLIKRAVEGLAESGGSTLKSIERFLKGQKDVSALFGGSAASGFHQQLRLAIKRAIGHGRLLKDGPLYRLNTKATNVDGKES
ACCCTTAA: -0.13
CTAGTAAG: -0.0865
GGGTTTAA: -0.0884
GGTTCCTA: -0.0949
AGTAGATA: -0.00179
AGCCTGAG: 0.0136
CCGGTTAA: 0.19
AACAGTCG: 0.0435
CGAGAACC: 0.0673
CGGTGTGA: 0.0221
CCGGAGCC: 0.0847
TATGGGCA: -0.0587
AAAGTTTG: -0.0812
CGGGGTAC: 0.149
AGTGTTAA: 0.0539
GAAGTAAC: -0.15

Excerpt of the above (series 1):
M176S: 3.93%
R24N: 3.81%
E64T: 20%
V145L: -7.76%
Q2L: 60.6%
F66I: -2.23%
